Published values pooled from the literature.
A part holds a random share of what one study measured. Substitutions count along the parent as printed.

Series 1
Target: CCND2, cyclin fold, Cln2 fusion (human)
Technique: yeast growth competition, sequencing
Sample: yeast
Notes: weak parent motif
Reference: not given
Direction: higher = stronger binding
Quantity: normalised enrichment score
Parent: viral docking peptide; KGVKRKLFAEDSS; partner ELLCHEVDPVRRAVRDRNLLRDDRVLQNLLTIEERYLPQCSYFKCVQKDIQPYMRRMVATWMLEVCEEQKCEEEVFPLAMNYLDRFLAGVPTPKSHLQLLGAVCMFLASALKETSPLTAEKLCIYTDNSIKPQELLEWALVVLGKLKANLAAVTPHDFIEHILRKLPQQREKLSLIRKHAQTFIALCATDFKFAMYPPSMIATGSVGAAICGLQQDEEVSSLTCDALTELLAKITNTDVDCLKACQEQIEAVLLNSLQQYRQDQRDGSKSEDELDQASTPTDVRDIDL
F8A: 0.28
V3G: 0.107
K6H: 0.143
S12G: -0.41
G2A: -0.106
E10W: -0.313
R5T: -0.0499
L7A: 0.0112
F8G: 0.278
K6F: -0.156
D11C: -0.0333
K4R: 0.385
E10C: -0.199
F8N: 0.106
V3N: 0.36
R5F: -0.0865
G2Q: 0.256
G2I: 0.297
A9R: 0.646
S12V: -0.000293
F8L: -0.349
G2F: 0.434
D11V: 0.0698
G2D: 0.185
L7S: 0.37

Series 2
Target: inorganic phosphate, free oxyanion
Technique: microfluidic competitive inhibition
Sample: in vitro, cell-free expressed
Concentration: not given
Notes: derived from inhibition constants, unchanged parent 615000 nM
Direction: lower = stronger binding
Quantity: phosphate dissociation constant
Parent: PafA, mature enzyme, eGFP fusion (Elizabethkingia meningoseptica, UniProt Q9KJX5); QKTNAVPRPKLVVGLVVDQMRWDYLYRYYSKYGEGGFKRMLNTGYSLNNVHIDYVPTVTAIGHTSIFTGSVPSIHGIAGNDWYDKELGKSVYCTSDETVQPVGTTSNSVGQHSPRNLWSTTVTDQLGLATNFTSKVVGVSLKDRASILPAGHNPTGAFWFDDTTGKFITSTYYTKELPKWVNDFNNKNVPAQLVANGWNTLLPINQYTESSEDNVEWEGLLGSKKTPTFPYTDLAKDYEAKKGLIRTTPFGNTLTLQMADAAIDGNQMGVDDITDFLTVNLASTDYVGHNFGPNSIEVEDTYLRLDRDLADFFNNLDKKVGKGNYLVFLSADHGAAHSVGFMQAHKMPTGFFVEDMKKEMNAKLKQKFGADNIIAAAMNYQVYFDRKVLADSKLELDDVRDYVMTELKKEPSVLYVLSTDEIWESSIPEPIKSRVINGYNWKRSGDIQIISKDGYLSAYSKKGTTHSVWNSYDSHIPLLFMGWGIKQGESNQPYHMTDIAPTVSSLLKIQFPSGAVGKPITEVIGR
C93G: 724 µM
H51G: 434 µM
G514V: 240 µM
V399G: 485 µM
L47V: 601 µM
A129G: 621 µM

Series 3
Target: Centromere-binding protein 1, full length, N-terminal tag (CBF1, Saccharomyces cerevisiae, UniProt P17106, residues 1-351)
UniProt P17106, sequence (whole entry, looked up): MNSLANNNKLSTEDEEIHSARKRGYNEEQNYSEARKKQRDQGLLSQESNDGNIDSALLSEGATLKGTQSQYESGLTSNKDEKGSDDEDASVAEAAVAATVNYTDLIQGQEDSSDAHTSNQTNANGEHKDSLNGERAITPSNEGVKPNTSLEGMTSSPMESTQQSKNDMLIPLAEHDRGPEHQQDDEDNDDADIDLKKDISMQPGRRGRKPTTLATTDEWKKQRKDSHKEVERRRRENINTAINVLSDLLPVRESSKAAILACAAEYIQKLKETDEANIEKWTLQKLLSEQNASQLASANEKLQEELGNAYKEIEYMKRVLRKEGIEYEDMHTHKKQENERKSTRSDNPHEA
Technique: protein-binding microarray
Form: double-stranded DNA, one strand shown
Sample: in vitro
Concentration: 0.8 µM
Notes: whole 60-bp probe, no competitor
Direction: higher = stronger binding
Quantity: fluorescence intensity
Constant ends, left off below: … GTCTTGATTCGCTTGACGCTGCTG
CTAATGCCCTGCTATCTTCACGTGGTTGAATAGTTC: 4540 a.u.
CTACTCATGCTTTGGCGCGTGCGCATCTATATATTC: 677 a.u.
CTACAAATAAAGTTGCATGTGGATTATTATGTTTTC: 673 a.u.
GAACTAATATAGACGCACGAGTTTCGTTCGCGCTAG: 643 a.u.
GAATTTCATATATTTCTGATGACTTTTTCATTTTAG: 531 a.u.
GAAGAATATTCAAGCCATGTGCAGAAATAGACGTAG: 949 a.u.
GAACCACACGATTATCACGACTACTACCATAATTAG: 565 a.u.
CTAAGAATGGATGGAAACGTGGCAAGTCATATCTTC: 586 a.u.

Series 4
Change: F56A
Target: ABI1, truncated, D143A, DHFR fusion (Arabidopsis thaliana)
Technique: DHFR PCA, deep sequencing
Sample: yeast
Notes: methotrexate growth selection, single substitutions
Reference: wild-type fitted maximum
Direction: higher = stronger binding
Quantity: relative binding score
Parent: PYL1, truncated, DHFR fusion (Arabidopsis thaliana); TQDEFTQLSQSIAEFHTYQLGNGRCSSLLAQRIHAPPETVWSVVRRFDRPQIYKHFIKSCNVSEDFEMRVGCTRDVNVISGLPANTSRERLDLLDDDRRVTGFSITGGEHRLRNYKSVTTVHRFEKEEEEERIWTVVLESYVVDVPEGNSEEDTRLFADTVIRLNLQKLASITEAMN
added: (+)-ABA 710 µM: 54.3%
added: (+)-ABA 200 µM: 33.1%
added: (+)-ABA 0.11 µM: 1.15%
added: (+)-ABA 2500 µM: 69.7%
added: (+)-ABA 58 µM: 7.75%
added: (+)-ABA 17 µM: -3.02%

Series 5
Target: PABPC1L2, full length, GST fusion (mouse, UniProt A0ABA7IW68)
Technique: RNAcompete
Form: RNA
Sample: in vitro
Concentration: 20 nM
Notes: 7-mer, probes averaged, single round
Reference: mean of 7-mers
Direction: higher = stronger binding
Quantity: 7-mer Z-score
Target sequence (chain): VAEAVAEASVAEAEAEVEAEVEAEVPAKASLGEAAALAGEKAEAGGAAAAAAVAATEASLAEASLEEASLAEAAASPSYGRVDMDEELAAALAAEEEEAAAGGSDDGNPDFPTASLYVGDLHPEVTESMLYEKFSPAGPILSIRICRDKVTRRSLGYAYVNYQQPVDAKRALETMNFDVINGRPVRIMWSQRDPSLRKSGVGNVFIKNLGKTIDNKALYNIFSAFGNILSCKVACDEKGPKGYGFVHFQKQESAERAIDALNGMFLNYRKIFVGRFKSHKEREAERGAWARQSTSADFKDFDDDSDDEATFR
CCGGAGA: 0.0334
UUCUGGA: -0.264
CAGGAUA: 0.0569
CCAGGGA: 0.0823
AAUACUA: 0.273
CGUCUAG: -0.402
AAGGUGC: 0.108
AGUCGGA: 0.0859

Further values, each from its own experiment
TAPFYPPAYDIQVFK — enrichment fold change (Ni-NTA bead binding, phage display NGS; peptide, phage-displayed 15-mer library; concentration not given, added: Ni-NTA beads 20 µL; reference: input library): 0.355

A few entries again (series 1):
F8N: 0.106
K6F: -0.156
G2I: 0.297
K4R: 0.385
